{"data": "Published values collected from several papers"}
{"SMILES": "CC[C@H](C)[C@H](NC(=O)[C@H](CCCCN)NC(=O)CNC(=O)[C@H](CC(C)C)NC(=O)[C@H](CC(C)C)NC(=O)[C@H](Cc1c[nH]cn1)NC(=O)[C@H](Cc1ccccc1)NC(=O)[C@@H](N)C(C)C)C(=O)N[C@H](C(=O)N[C@@H](Cc1c[nH]cn1)C(=O)N[C@@H](Cc1c[nH]cn1)C(=O)N[C@H](C(=O)NCC(=O)N[C@@H](CC(N)=O)C(=O)N[C@@H](Cc1ccccc1)C(=O)N[C@H](C(=O)N[C@@H](Cc1ccc(O)c(O)c1)C(=O)NCC(=O)N[C@@H](Cc1ccccc1)C(=O)N[C@@H](CO)C(=O)N[C@@H](Cc1c[nH]cn1)C(=O)N[C@H](C(=O)N[C@@H](Cc1ccccc1)C(N)=O)C(C)C)C(C)C)C(C)C)[C@@H](C)CC", "technique": "CD spectroscopy", "medium": "50% TFE", "concentration": "50 µM", "helicity": "36.3%"}
{"SMILES": "CC[C@H](C)[C@H](NC(=O)[C@H](Cc1ccccc1)NC(=O)[C@H](CC(=O)O)NC(=O)[C@@H]1CCCNC(=O)NCC[C@H](NC(=O)[C@H](CC(C)C)NC(=O)[C@H](CCCNC(=N)N)NC(=O)[C@H](CCSC)NC(=O)[C@H](C)N)C(=O)N[C@@H](CCCCN)C(=O)N[C@@H](Cc2ccccc2)C(=O)N[C@@H](Cc2ccccc2)C(=O)N1)C(=O)N[C@@H](CC(C)C)C(=O)N[C@@H](CCC(N)=O)C(=O)N[C@@H](CCCNC(=N)N)C(=O)N[C@@H](CCCCN)C(=O)N[C@@H](CCCCN)C(=O)O", "technique": "circular dichroism", "medium": "20% TFE in PBS", "concentration": "200 µM", "pH": "pH 7.4", "temperature": "25 °C", "helicity": "18.3%"}
{"SMILES": "CC[C@H](C)[C@H](NC(=O)[C@H](Cc1c[nH]c2ccccc12)NC(=O)[C@H](CCCCN)NC(=O)[C@@H](NC(=O)[C@H](CC(C)C)NC(=O)[C@H](CCCCN)NC(=O)CNC(=O)[C@@H](NC(=O)[C@@H](NC(=O)[C@H](CO)NC(=O)[C@@H](NC(=O)[C@@H](NC(=O)[C@H](CCCCN)NC(=O)[C@H](CCC(N)=O)NC(=O)[C@H](C)NC(=O)[C@H](CCSC)NC=O)[C@@H](C)CC)[C@@H](C)CC)[C@@H](C)O)[C@@H](C)CC)C(C)C)C(=O)N[C@H](C(=O)N[C@@H](CCCCN)C(=O)N[C@H](C(=O)N[C@H](C(=O)N[C@@H](CC(N)=O)C(=O)N[C@@H](CCCCN)C(=O)N[C@@H](Cc1ccccc1)C(=O)N[C@H](C(=O)N[C@@H](CCCCN)C(=O)N[C@@H](CCCCN)C(=O)O)[C@@H](C)O)C(C)C)[C@@H](C)O)[C@@H](C)CC (racemic)", "technique": "circular dichroism", "medium": "POPC vesicles 5 mM", "concentration": "20 µM", "notes": "fully membrane bound", "helicity": "52%"}
{"SMILES": "CC[C@H](C)[C@H](NC(=O)[C@H](Cc1ccccc1)NC(=O)[C@H](CC(=O)O)NC(=O)[C@H](CCCNC(=N)N)NC(=O)[C@H](Cc1ccccc1)NC(=O)[C@H](Cc1ccccc1)NC(=O)[C@H](CCCCN)NC(=O)[C@H](CO)NC(=O)[C@H](CC(C)C)NC(=O)[C@H](CCCNC(=N)N)NC(=O)[C@H](CCSC)NC(=O)[C@H](C)N)C(=O)N[C@@H](CCN)C(=O)N[C@@H](CCC(N)=O)C(=O)N[C@@H](CCCNC(=N)N)C(=O)N[C@@H](CCCCN)C(=O)N[C@@H](CCCCN)C(=O)O", "technique": "circular dichroism", "medium": "20% TFE in PBS", "concentration": "200 µM", "pH": "pH 7.4", "temperature": "25 °C", "helicity": "17.5%"}
{"SMILES": "CC[C@H](C)[C@H](NC(=O)CNC(=O)[C@H](CC(=O)O)NC(=O)[C@H](CCCNC(=N)N)NC(=O)[C@@H](NC(=O)[C@H](CC(N)=O)NC(=O)[C@H](CCC(N)=O)NC(=O)CNC(=O)[C@@H](NC(=O)[C@H](CCCCN)NC(=O)[C@H](CCC(=O)O)NC(=O)[C@@H](NC(=O)[C@H](CCCCN)NC(=O)[C@H](CCCCN)NC(=O)[C@H](Cc1ccccc1)NC(=O)[C@H](CC(C)C)NC(=O)[C@H](CCCCN)NC(=O)[C@H](Cc1c[nH]c2ccccc12)NC(=O)[C@@H](N)CCCCN)[C@@H](C)CC)C(C)C)[C@@H](C)CC)C(=O)N[C@H](C(=O)N[C@@H](CCCCN)C(=O)N[C@@H](C)C(=O)NCC(=O)N1CCC[C@H]1C(=O)N[C@@H](C)C(=O)N[C@H](C(=O)N[C@@H](C)C(=O)N[C@H](C(=O)N[C@H](C(=O)NCC(=O)N[C@@H](CCC(N)=O)C(=O)N[C@@H](C)C(=O)N[C@H](C(=O)N[C@@H](CCC(N)=O)C(=O)N[C@H](C(=O)N[C@@H](C)C(=O)N[C@@H](CCCCN)C(N)=O)[C@@H](C)CC)[C@@H](C)O)C(C)C)C(C)C)C(C)C)[C@@H](C)CC", "technique": "circular dichroism", "medium": "phosphate buffer 10 mM", "concentration": "1 to 5 µM", "pH": "pH 7.5", "notes": "approximate", "helicity": "~10%"}
{"SMILES": "CC(C)C[C@H](NC(=O)[C@H](CCC(=O)O)NC(=O)[C@H](C)NC(=O)[C@H](CCC(=O)O)NC(=O)[C@H](CCC(=O)O)NC(=O)[C@H](Cc1c[nH]cn1)NC(=O)[C@H](CCCNC(=N)N)NC(=O)[C@H](CCC(=O)O)NC(=O)[C@H](CC(N)=O)NC(=O)[C@H](CCCCN)NC(=O)[C@H](CC(C)C)NC(=O)[C@H](CCCNC(=N)N)NC(=O)[C@H](CCC(N)=O)NC(=O)[C@H](CC(C)C)NC(=O)[C@H](CCC(N)=O)NC(=O)[C@H](C)NC(=O)[C@H](CC(N)=O)NC(=O)[C@H](C)NC(=O)[C@@H](NC(=O)[C@H](CC(C)C)NC(=O)[C@H](CCCCN)NC(=O)[C@H](CCC(=O)O)NC(=O)[C@@H](NC(=O)[C@H](CO)NC(=O)CN)C(C)C)[C@@H](C)O)C(=O)N[C@@H](CCC(=O)O)C(=O)N[C@@H](CCCNC(=N)N)C(=O)N[C@@H](CC(C)C)C(=O)N[C@@H](CCCCN)C(=O)N[C@@H](CO)C(=O)N[C@@H](CCC(=O)O)C(=O)N[C@@H](Cc1ccc(O)cc1)C(=O)O", "technique": "circular dichroism", "medium": "sodium phosphate", "concentration": "30 µM", "pH": "pH 7.4", "temperature": "room temperature", "helicity": "12%"}
{"SMILES": "CC[C@H](C)[C@H](NC(=O)[C@H](Cc1ccccc1)NC(=O)[C@@H]1CCn2cc(nn2)COCc2cn(nn2)CC[C@H](NC(=O)[C@H](Cc2ccc(O)cc2)NC(=O)[C@H](CO)NC(=O)[C@H](CO)NC(=O)[C@@H](NC(=O)[C@H](CC(=O)O)NC(=O)[C@H](CO)NC(=O)[C@@H](NC(=O)[C@H](Cc2ccccc2)NC(=O)[C@@H](NC(=O)CNC(=O)[C@H](CCC(=O)O)NC(=O)[C@H](C)NC(=O)[C@@H](N)Cc2c[nH]cn2)[C@@H](C)O)[C@@H](C)O)C(C)C)C(=O)N[C@@H](CCC(=O)O)C(=O)NCC(=O)N[C@@H](CCC(N)=O)C(=O)N[C@@H](C)C(=O)N[C@@H](C)C(=O)N[C@@H](CCCCN)C(=O)N1)C(=O)N[C@@H](C)C(=O)N[C@@H](Cc1c[nH]c2ccccc12)C(=O)N[C@@H](CC(C)C)C(=O)N[C@H](C(=O)N[C@@H](CCCCN)C(=O)NCC(=O)N[C@@H](CCCNC(=N)N)C(N)=O)C(C)C", "technique": "circular dichroism", "medium": "50% TFE", "helicity": "104%"}
{"SMILES": "CC[C@H](C)[C@H](NC(=O)[C@H](Cc1c[nH]c2ccccc12)NC(=O)[C@H](CCCCN)NC(=O)[C@@H](NC(=O)[C@H](CC(C)C)NC(=O)[C@H](CC(=O)O)NC(=O)CNC(=O)[C@@H](NC(=O)[C@@H](NC(=O)[C@H](CO)NC(=O)[C@@H](NC(=O)[C@@H](NC(=O)[C@H](CC(=O)O)NC(=O)[C@H](CCC(N)=O)NC(=O)[C@H](C)NC(=O)[C@H](CCSC)NC=O)[C@@H](C)CC)[C@@H](C)CC)[C@@H](C)O)[C@@H](C)CC)C(C)C)C(=O)N[C@H](C(=O)N[C@@H](CC(=O)O)C(=O)N[C@H](C(=O)N[C@H](C(=O)N[C@@H](CC(N)=O)C(=O)N[C@@H](CCCCN)C(=O)N[C@@H](Cc1ccccc1)C(=O)N[C@H](C(=O)N[C@@H](CCCCN)C(=O)N[C@@H](CCCCN)C(=O)O)[C@@H](C)O)C(C)C)[C@@H](C)O)[C@@H](C)CC", "technique": "circular dichroism", "medium": "phosphate buffer 10 mM", "concentration": "1 to 5 µM", "pH": "pH 7.5", "notes": "approximate", "helicity": "53%"}
{"SMILES": "CC[C@H](C)[C@H](NC(=O)[C@H](Cc1ccccc1)NC(=O)[C@H](CC(=O)O)NC(=O)[C@@H]1CCCNC(=O)NC[C@H](NC(=O)[C@H](CC(C)C)NC(=O)[C@H](CCCNC(=N)N)NC(=O)[C@H](CCSC)NC(=O)[C@H](C)N)C(=O)N[C@@H](CCCCN)C(=O)N[C@@H](Cc2ccccc2)C(=O)N[C@@H](Cc2ccccc2)C(=O)N1)C(=O)N[C@@H](CC(C)C)C(=O)N[C@@H](CCC(N)=O)C(=O)N[C@@H](CCCNC(=N)N)C(=O)N[C@@H](CCCCN)C(=O)N[C@@H](CCCCN)C(=O)O", "technique": "circular dichroism", "medium": "20% TFE in PBS", "concentration": "200 µM", "pH": "pH 7.4", "temperature": "25 °C", "helicity": "17.2%"}
{"SMILES": "CC(C)C[C@H](NC(=O)[C@H](C)NC(=O)[C@H](C)NC(=O)[C@H](C)NC(=O)[C@H](C)NC(=O)[C@@H](NC(=O)[C@H](CC(C)C)NC(=O)[C@H](CCCCN)NC(=O)[C@H](CCC(=O)O)NC(=O)[C@@H](NC(=O)[C@H](CO)NC(=O)CN)C(C)C)[C@@H](C)O)C(=O)N[C@@H](CCC(N)=O)C(=O)N[C@@H](CCCNC(=N)N)C(=O)N[C@@H](CC(C)C)C(=O)N[C@@H](CCCCN)C(=O)N[C@@H](CC(N)=O)C(=O)N[C@@H](CCC(=O)O)C(=O)N[C@@H](CCCNC(=N)N)C(=O)N[C@@H](Cc1c[nH]cn1)C(=O)N[C@@H](CCC(=O)O)C(=O)N[C@@H](CCC(=O)O)C(=O)N[C@@H](C)C(=O)N[C@@H](CCC(=O)O)C(=O)N[C@@H](CC(C)C)C(=O)N[C@@H](CCC(=O)O)C(=O)N[C@@H](CCCNC(=N)N)C(=O)N[C@@H](CC(C)C)C(=O)N[C@@H](CCCCN)C(=O)N[C@@H](CO)C(=O)N[C@@H](CCC(=O)O)C(=O)N[C@@H](Cc1ccc(O)cc1)C(=O)O", "technique": "circular dichroism", "medium": "sodium phosphate", "concentration": "30 µM", "pH": "pH 7.4", "temperature": "room temperature", "helicity": "19%"}
{"note": "Repeated from above:"}
{"SMILES": "CC(C)C[C@H](NC(=O)[C@H](CCC(=O)O)NC(=O)[C@H](C)NC(=O)[C@H](CCC(=O)O)NC(=O)[C@H](CCC(=O)O)NC(=O)[C@H](Cc1c[nH]cn1)NC(=O)[C@H](CCCNC(=N)N)NC(=O)[C@H](CCC(=O)O)NC(=O)[C@H](CC(N)=O)NC(=O)[C@H](CCCCN)NC(=O)[C@H](CC(C)C)NC(=O)[C@H](CCCNC(=N)N)NC(=O)[C@H](CCC(N)=O)NC(=O)[C@H](CC(C)C)NC(=O)[C@H](CCC(N)=O)NC(=O)[C@H](C)NC(=O)[C@H](CC(N)=O)NC(=O)[C@H](C)NC(=O)[C@@H](NC(=O)[C@H](CC(C)C)NC(=O)[C@H](CCCCN)NC(=O)[C@H](CCC(=O)O)NC(=O)[C@@H](NC(=O)[C@H](CO)NC(=O)CN)C(C)C)[C@@H](C)O)C(=O)N[C@@H](CCC(=O)O)C(=O)N[C@@H](CCCNC(=N)N)C(=O)N[C@@H](CC(C)C)C(=O)N[C@@H](CCCCN)C(=O)N[C@@H](CO)C(=O)N[C@@H](CCC(=O)O)C(=O)N[C@@H](Cc1ccc(O)cc1)C(=O)O", "technique": "circular dichroism", "medium": "sodium phosphate", "concentration": "30 µM", "pH": "pH 7.4", "temperature": "room temperature", "helicity": "12%"}
